Measurements collected from several papers.
Lines come from different studies, so protocols differ. Numbers after ± are the reported error.
Technique: steady-state kinetics
B1: enzyme D185A (Thermococcus kodakarensis, UniProt Q5JID5); chain MLYVEILGNLPEMARDEVKAMLELGGGEIIGQDYLFLKVDAGEKAFPFLDRLGLAHEYGLLLVEADSVEELLQKAGEVEWPIKGAFKVDTETMANCRHDVLDLPRKLGAVIHAQGFRVNLSKPDTVVRVYCGERLYAGIRLRYFDPKDFEKRKAHHRPFFRPISLHPRVSRALVNLTKATREILAPFMGAGGILIEAGLLGLRVYGVDIRPEMVEGAETNLKHYGVRDYTLKLGDATRLEDLFPDKKFEAVATDPPYGTAATLAGRKRDELYRKALRSIYNVLEDGGRLAIAFPTDFNGKAEAEAVGFRTLGRYYQRVHKSLERYFYVFEK
B2: HCT R356E (Coleus scutellarioides, UniProt E8ZAP2); chain MKIHVRDSTLVRPSAATPAVSLWNSNVDLVVPNFHTPSVYFYRPSGADNFFDTAVMKAALGRALVSFYPMAGRLKRDEDGRVEIDCNAEGVLFVEAESDGTVDDYGDFAPSLELRRLIPAVDYSQGISAYPLLVLQVTFFKCGGVSLGVGMQHHAADGFSGLHFINTWSDMARGLDITLPPFIDRTLLSARDPPQPQFKHVEYQPPPAMKTYEPAETVVSIFKLTKDQLTTLKAKSKEDGNTTTYSSYEMLSGHVWRCTCLARGLPEEQETKLYIATDGRSRLQPQLPPGYFGNVIFTATPLAVAGDLGSKPVWYAASKIHDALARMDNDYLRSALDFLELQPDLKALVRGAHTFECPNLGITSWVRLPIHDADFGWGRPIFMGPGGIAYEGLSFVLPSPTNDGSLSVAISLQAEHMKLFEKLLYQI
B3: protein Y93W (Thermus thermophilus, UniProt Q5SKR5); chain MSAPKPFVIGIAGGTASGKTTLAQALARTLGERVALLPMDHYYKDLGHLPLEERLRVNYDHPDAFDLALYLEHAQALLRGLPVEMPVYDFRAWTRSPRRTPVRPAPVVILEGILVLYPKELRDLMDLKVFVDADADERFIRRLKRDVLERGRSLEGVVAQYLEQVKPMHLHFVEPTKRYADVIVPRGGQNPVALEMLAAKALARLARMGAA
B4: octaprenyl-diphosphate synthase (Bacteroides fragilis, UniProt Q5LIZ3); chain MDSLSLIKSPITTELEDFKNLFDSSLSSSNLLLNNVIAHIRQRNGKMMRPILVLLVAKLYGEIKPETLHAAVSLELLHTASLVHDDVVDESTERRGQLSVNAIFNNKVAVLVGDFLLATSLVHAERTRNHDIIGVVACLGQDLAEGEILQLSNVSNREYSETIYFDVIRKKTAALFAACTKAAALSVEVTDEKAEFARLFGENIGICFQIKDDIFDYFESKEIGKPTGNDMLEGKLTLPALYVLNTTTDAWAQEMALRVKAGTATVDEITRLIEFIKQNGGIEYAVKVMYEYKERALDLLRTLPDSAVKTSLITYLDYVVDRDK
B5: LigI (Sphingobium sp. SYK-6, UniProt O87170); chain TNDERILSWNETPSKPRYTPPPGAIDAHCHVFGPMAQFPFSPKAKYLPRDAGPDMLFALRDHLGFARNVIVQASCHGTDNAATLDAIARAQGKARGIAVVDPAIDEAELAALHEGGMRGIRFNFLKRLVDDAPKDKFLEVAGRLPAGWHVVIYFEADILEELRPFMDAIPVPIVIDHMGRPDVRQGPDGADMKAFRRLLDSREDIWFKATCPDRLDPAGPPWDDFARSVAPLVADYADRVIWGTDWPHPNMQDAIPDDGLVVDMIPRIAPTPELQHKMLVTNPMRLYWSEEM
B6: enzyme (Triticum aestivum, UniProt A0A6J4BJN3); chain MPATENAAGEAWDRRRELQAFDDTKAGVKGLVDAGVTALPPIFRHSPESLEGITSSNHDAAAIPTVDLSAARREDTVALVRRAAATVGFFQVVNHGVPAELMAGMLEAVRRFNEGPAEAKQAIYSRDQARKVRFASNFDLFSSAAANWRDTLFFHLAPDPAPSQDLPEAVRDVVTEYGKAVTKVALSVLELLSESLGLSSDHLRDMGCAENLNAVCQYYPPCPEPYLTWGTKRHTDPGFLTVLLQDGMGGLQVLVDRKTWVDVPPVPGAFIINIGDLLQLVSNDQFRSVEHRVLANKSKDTARVSVASFFNTDMERSTRLYGPITDGRNPPIYRSVTARDFIATFNRIGLDGRSLDHYRLDQDTPAHAVEGSE
B7: protein (UniProt M4ZR24); chain MNEIGTTWAEGTSERVIRLLTDKRAGRPMSGPDIEGLVKDFTAGSVPDYQMASWLATVACAGLSAEELTALTAAYVDSGERLSLSSSRRPVADKHSTGGVGDKTTLVVAPVVAACGIGVGKVTGRGLGFMGGTVDKLESIPGLDLELSGSALSAQVADLGLAVTGQSPSLVPGDRMTYALRDVTGTVDSIPLIAASIMSKNTKGIAVRCNSIVLDVKYGDGAVLPDRAVATELARTMLELGRSFDLPTTAVISSMEQPLGYAVGNGLEVREAIIALSGTYVEDLTELAITISALMISTADSAVDHDRARDRVREVLSDGSALRMFRAFVARQGGDVGFVDDPSRLETAPHRLVVTATEAGHVARIAARRIGEAALRVGAGRLVYGAPIDHGAGIVLSRRIGDSVAEGEPLATLHGSDYDQLESLADVVRGCFDISERPPGRPDVIVDVLRQGDAG
B8: enzyme (Acinetobacter baumannii, UniProt D0CBC8); chain MALVLDGRALAKQIEENLLVRVEALKAKTGRTPILATILVGDDGASATYVRMKGNACRRVGMDSLKIELPQETTTEQLLAEIEKLNANPDVHGILLQHPVPAQIDERACFDAISLAKDVDGVTCLGFGRMAMGEAAYGSATPAGIMTILKENNIEIAGKHAVVVGRSAILGKPMAMMLLQANATVTICHSRTQNLPELVKQADIIVGAVGKAELIQKDWIKQGAVVVDAGFHPRDGGGVGDIQLQGIEEIASAYTPVPGGVGPMTITTLIRQTVEAAEKALG
B9: TcA (Trypanosoma cruzi, UniProt Q4DRC4); chain MFIRLFAREEEGEKEGKICHMPREYEFAEKILFTEEEIRTRIKEVAKRIADDYKGKGLRPYVNPLVLISVLKGSFMFTADLCRALCDFNVPVRMEFICVSSYGEGLTSSGQVRMLLDTRHSIEGHHVLIVEDIVDTALTLNYLYHMYFTRRPASLKTVVLLDKREGRRVPFSADYVVANIPNAFVIGYGLDYDDTYRELRDIVVLRPEVYAEREAARQKKQRAIGSADTDRDAKREFHSKY
B10: LYPLA1 (Homo sapiens, UniProt O75608); chain MCGNNMSTPLPAIVPAARKATAAVIFLHGLGDTGHGWAEAFAGIRSSHIKYICPHAPVRPVTLNMNVAMPSWFDIIGLSPDSQEDESGIKQAAENIKALIDQEVKNGIPSNRIILGGFSQGGALSLYTALTTQQKLAGVTALSCWLPLRASFPQGPIGGANRDISILQCHGDCDPLVPLMFGSLTVEKLKTLVNPANVTFKTYEGMMHSSCQQEMMDVKQFIDKLLPPID
B11: sacB S173A (Priestia megaterium, UniProt D5DC07); chain KGNDSKDFNNSYGISHITRDNMVKIPQQQNSDQFKVPAFDESTIKNIASAKGKNASGNTIDLDVWDSWPLQNADGTVATYHGYQIVFALAGDPKDSNDTSVYLFYKKAGDKSIDSWKNAGRVFKDSDKFVPNDPHLKNQTQEWAGSGTLTKDGKVRLFYTDYSGKQYGKQTLTTAQVNMSQPNDNTLKVDGVEDYKSIFDGDGKIYQTVQQFIDEGGYDTGDNHTLRDPHYIEDNGHKYLVFEANTGTEDGYQGEDSLYNRAYYGGNNPFFQSEKKKLLEGSNKEKASLANGALGIIELNDDYTLKKVMKPLITSNTVTDEIERANIFKKDGKWYLFTDSRGSKMTIDGIGQDDVYMLGYVSNTLTGKYKPLNDTGLVLHMDLDPNDKTFTYSHFAVPQTKGDNVVITSYMTNRGFYEDNHSTFAPSFLVNIDGSKTSVVKDRVLEQGQLTVDED
B12: CoA persulfide reductase CDR-RHD (Enterococcus faecalis, UniProt A0ACD6TF65); chain MKIVIIGGVAGGMSAATRLRRLMEDAEIVVMEKGPFVSFANCGLPYYVSGEIAEREQLLVQTPEALKARFNLDVRPHHEVVAIDPIEKVITVKHETEILTEHYDKLILSPGAKPFVPPITGLAEAKNVFSLRNVPDLDQIMTALTPETKRAVVIGAGFIGLEMAENLQKRGLEVTLVEKAPHVLPPLDEEMAAFVKAELSKNNVQVITGQSAVAFEEEGQVIRLEDGQTLASDLTILSVGVQPENTLAVEAGVATGLRGGIVVDEHYQTNQPDIYAVGDAIVVKQQITQEDALISLASPANRQGRQVADVIAGLERKNQGSIGTAIVRVFDLTAASTGLSERAAKAAGLTTAVVHISGKDHAGYYPGATDLQLKLVFHPTTGEIYGAQGIGAKGVDKRIDILATAIKGQLTIFDLPELEFTYAPPFGSAKDPVNMLGYAAMNLVEGLSENVQWYELSNELAKGAVLLDVRNPAERANGQFKNAVSIPLNELRERLEELDKSTEYIVSCHSGLRSYIAERMLKQAGISAKNLDGAFALYRMVKPEELENV
B13: dnrK (Streptomyces peucetius, UniProt Q06528); chain MTAEPTVAARPQQIDALRTLIRLGSLHTPMVVRTAATLRLVDHILAGARTVKALAARTDTRPEALLRLIRHLVAIGLLEEDAPGEFVPTEVGELLADDHPAAQRAWHDLTQAVARADISFTRLPDAIRTGRPTYESIYGKPFYEDLAGRPDLRASFDSLLACDQDVAFDAPAAAYDWTNVRHVLDVGGGKGGFAAAIARRAPHVSATVLEMAGTVDTARSYLKDEGLSDRVDVVEGDFFEPLPRKADAIILSFVLLNWPDHDAVRILTRCAEALEPGGRILIHERDDLHENSFNEQFTELDLRMLVFLGGALRTREKWDGLAASAGLVVEEVRQLPSPTIPYDLSLLVLAPAATGA
Chain of UniProt P9WEW2 (whole entry, looked up): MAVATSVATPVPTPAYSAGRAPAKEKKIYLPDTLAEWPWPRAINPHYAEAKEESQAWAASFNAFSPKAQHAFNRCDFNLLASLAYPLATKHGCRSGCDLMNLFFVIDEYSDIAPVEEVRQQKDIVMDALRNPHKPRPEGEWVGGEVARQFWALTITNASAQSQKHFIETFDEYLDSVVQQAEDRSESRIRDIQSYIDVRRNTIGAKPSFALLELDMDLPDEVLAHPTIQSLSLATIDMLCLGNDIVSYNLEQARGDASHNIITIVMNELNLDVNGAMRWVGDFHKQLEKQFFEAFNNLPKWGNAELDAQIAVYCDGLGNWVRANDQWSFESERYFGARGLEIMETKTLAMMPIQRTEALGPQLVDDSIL
Chain of UniProt P77212 (whole entry, looked up): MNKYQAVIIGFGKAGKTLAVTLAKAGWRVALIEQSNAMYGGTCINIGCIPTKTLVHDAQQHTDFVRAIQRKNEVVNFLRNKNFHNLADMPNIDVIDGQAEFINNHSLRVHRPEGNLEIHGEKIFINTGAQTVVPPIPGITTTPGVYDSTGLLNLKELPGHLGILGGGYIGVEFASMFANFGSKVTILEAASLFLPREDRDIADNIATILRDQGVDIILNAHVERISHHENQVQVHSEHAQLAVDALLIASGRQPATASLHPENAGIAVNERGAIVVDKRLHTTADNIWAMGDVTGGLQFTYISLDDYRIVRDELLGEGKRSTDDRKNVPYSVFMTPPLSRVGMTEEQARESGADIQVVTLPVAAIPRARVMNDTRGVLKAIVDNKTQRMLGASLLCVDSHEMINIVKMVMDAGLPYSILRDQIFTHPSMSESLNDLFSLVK
Chain of UniProt P22303 (whole entry, looked up): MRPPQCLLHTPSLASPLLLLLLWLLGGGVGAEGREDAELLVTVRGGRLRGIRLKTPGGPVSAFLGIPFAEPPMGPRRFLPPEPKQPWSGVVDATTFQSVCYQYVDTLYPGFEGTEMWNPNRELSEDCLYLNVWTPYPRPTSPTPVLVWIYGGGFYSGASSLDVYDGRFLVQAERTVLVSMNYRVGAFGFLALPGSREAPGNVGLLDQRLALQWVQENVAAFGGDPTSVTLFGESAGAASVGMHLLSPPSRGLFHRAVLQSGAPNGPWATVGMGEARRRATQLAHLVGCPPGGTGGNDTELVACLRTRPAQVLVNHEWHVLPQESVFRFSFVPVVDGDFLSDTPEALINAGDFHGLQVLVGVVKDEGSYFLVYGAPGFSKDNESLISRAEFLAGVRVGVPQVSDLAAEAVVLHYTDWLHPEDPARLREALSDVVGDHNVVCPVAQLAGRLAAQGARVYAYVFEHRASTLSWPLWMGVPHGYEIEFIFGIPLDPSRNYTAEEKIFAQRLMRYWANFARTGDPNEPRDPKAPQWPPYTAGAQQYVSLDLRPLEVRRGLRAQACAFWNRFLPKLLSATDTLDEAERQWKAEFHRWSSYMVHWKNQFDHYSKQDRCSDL

The kcat of `B1 (enzyme D185A)` is reported as 0.0025 ± 0.0005 s⁻¹ (C[S+](CC[C@H](N)C(=O)O)C[C@H]1O[C@@H](n2cnc3c(N)ncnc32)[C@H](O)[C@@H]1O; pH 7.5, 50 °C, apparent).
The kcat of `B2 (HCT R356E)` is reported as 6.7 ± 0.6 s⁻¹ (NCc1ccc(O)c(O)c1; pH 8, pseudo-first-order, together with: p-coumaroyl CoA).
`B3 (protein Y93W)` has a kcat of 0.4 ± 0.1 s⁻¹ (Nc1ccn([C@@H]2O[C@H](CO)[C@@H](O)[C@H]2O)c(=O)n1; pH 7.2, 25 °C, KCl 100 mM, together with: ATP 100–200 µM).
`B4` has a kcat of 0.03 s⁻¹ (C=C(C)CCO[P@@](=O)(O)OP(=O)(O)O; pH 7.6, 37 °C, together with: FPP; Triton X-100.1%; MgCl2 10 mM).
With `protein (Klebsiella pneumoniae, UniProt A6T9E8)` the kcat was 238 ± 19 s⁻¹ (NC(=O)N[C@@H]1NC(=O)NC1=O; pH 7.5, 25 °C, NaCl 10 mM).
`B5 (LigI)` has a kcat of 116 ± 6 s⁻¹ (O=C(O)/C=C(\CC(=O)C(=O)O)C(=O)O; pH 8.25, 30 °C, reverse reaction, tautomer mixture).
The kcat of `protein (Stereum hirsutum, UniProt P9WEW2)` is reported as 0.0063 ± 0.0007 s⁻¹ (CC(C)=CCC/C(C)=C/CC/C(C)=C/CO[P@@](=O)(O)OP(=O)(O)O; pH 8, NaCl 200 mM, together with: FPP 1–100 µM).
`ACHE (Homo sapiens, UniProt P22303)` gave a kcat of 7180 ± 583 s⁻¹ (CC(=O)SCC[N+](C)(C)C; pH 8, 22 °C).
With `B6 (enzyme)` the kcat was 0.715 s⁻¹ (O=C1[C@@H](O[C@@H]2O[C@H](CO)[C@@H](O)[C@H](O)[C@H]2O)Oc2ccccc2N1O; pH 7.2, 30 °C).
With `rclA (Escherichia coli, UniProt P77212)` the kcat was 180 s⁻¹ (N#CSO; pH 7.4, apparent).
`B7 (protein)` has a kcat of 0.0483 ± 0.00333 s⁻¹ (Cc1cn([C@H]2C[C@H](O)[C@@H](CO)O2)c(=O)[nH]c1=O; phosphorolysis, single substrate, together with: phosphate).
The kcat of `B8 (enzyme)` is reported as 142 ± 11.3 s⁻¹ (Nc1nc2c(c(=O)[nH]1)[N+]1=CN(c3ccc(C(=O)N[C@@H](CCC(=O)O)C(=O)[O-])cc3)C[C@H]1CN2; pH 7.3, 27 °C).
`B9 (TcA)` gave a kcat of 0.005 ± 0.0006 s⁻¹ (O=c1[nH]c(=O)c2[nH]cnc2[nH]1; pH 8.3, 37 °C, apparent, together with: PRPP 1 mM, MgCl2 12 mM).
The kcat of `B10 (LYPLA1)` is reported as 0.046 ± 0.004 s⁻¹ (CN(C)c1ccc(/N=N/c2ccc(C(=O)NCCCn3cc(CCCCCCCCCCCCCCCC(=O)SC[C@H](NC(=O)c4cc5ccc(O)cc5oc4=O)C(=O)N4CCOCC4)nn3)cc2)cc1; pH 7.4, 37 °C).
`B11 (sacB S173A)` has a kcat of 3.8 ± 0.1 s⁻¹ (OC[C@H]1O[C@@](CO)(O[C@H]2O[C@H](CO)[C@@H](O)[C@H](O)[C@H]2O)[C@@H](O)[C@@H]1O; pH 6.6).
`B12` has a kcat of 0.11 ± 0.11 s⁻¹ (N[C@@H](CSS)C(=O)O; pH 8, 25 °C, Km not accurate, together with: FAD 100 nM, NADH 100 µM).
`B13 (dnrK)` gave a kcat of 0.0108 ± 0.0005 s⁻¹ (CC(=O)[C@]1(O)Cc2c(O)c3c(c(O)c2[C@@H](O[C@H]2C[C@H](N)[C@H](O)[C@H](C)O2)C1)C(=O)c1c(O)cccc1C3=O; pH 8, 37 °C, together with: AdoMet).

Excerpt of the above:
The kcat of `B1 (enzyme D185A)` is reported as 0.0025 ± 0.0005 s⁻¹ (C[S+](CC[C@H](N)C(=O)O)C[C@H]1O[C@@H](n2cnc3c(N)ncnc32)[C@H](O)[C@@H]1O; pH 7.5, 50 °C, apparent).
The kcat of `B2 (HCT R356E)` is reported as 6.7 ± 0.6 s⁻¹ (NCc1ccc(O)c(O)c1; pH 8, pseudo-first-order, together with: p-coumaroyl CoA).
`B3 (protein Y93W)` has a kcat of 0.4 ± 0.1 s⁻¹ (Nc1ccn([C@@H]2O[C@H](CO)[C@@H](O)[C@H]2O)c(=O)n1; pH 7.2, 25 °C, KCl 100 mM, together with: ATP 100–200 µM).
